Measured values gathered from unrelated publications.
Every numbered part comes from another study and shows a few of its results, in no order.

Set 1
Target: RING finger protein unkempt homolog, zinc fingers 1-6, GST-SBP tag (UNK, Homo sapiens, UniProt Q9C0B0, residues 30-357)
Chain of UniProt Q9C0B0 (30-357, looked up): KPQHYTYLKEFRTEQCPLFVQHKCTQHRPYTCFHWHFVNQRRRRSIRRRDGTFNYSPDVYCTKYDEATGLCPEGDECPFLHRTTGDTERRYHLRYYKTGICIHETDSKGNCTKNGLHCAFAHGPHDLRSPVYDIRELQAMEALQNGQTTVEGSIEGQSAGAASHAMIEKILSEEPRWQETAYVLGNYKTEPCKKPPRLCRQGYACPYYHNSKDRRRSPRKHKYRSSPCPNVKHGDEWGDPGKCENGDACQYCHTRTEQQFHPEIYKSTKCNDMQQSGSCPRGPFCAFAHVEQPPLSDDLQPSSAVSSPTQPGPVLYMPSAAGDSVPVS
Technique: RNA Bind-n-Seq
Molecule type: RNA
Medium: in vitro
Tested at: not given
Setting: RNA with constant flanks, ends assumed
Baseline: input RNA pool
Reading: higher = stronger binding
`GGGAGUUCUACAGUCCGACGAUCAAAACAUGUAAAUCCAGUCUACUCUAUUGUCUUGUUUUGAUUAUACCAUCAGACACAUUGCCGUUGCCCGACGUAGUAUGAAGGCACAGGUGAUGGGGCAGUCCUAAAUUUCUGACUCUUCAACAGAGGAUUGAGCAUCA` gave a bound/input enrichment of 0.107 ratio.
With `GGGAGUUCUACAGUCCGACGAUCUAACGUUACAUAUCAUAGUGAAUGGUUUCCCCAGUGUAUAUGAAUGUUUUAAGUGUCUCCAACCGCUUAUGCAGUCUAGGAGCUUUCCAAUACUCAUUUAAUUAAGAUUUAAUCAUUUGCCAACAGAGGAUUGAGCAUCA` the bound/input enrichment was 0.487 ratio.
With `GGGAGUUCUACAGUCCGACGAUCGGAGGCUAUGGAGGCUAUGAUGAUUAUAAUGGCUAUAAUGAUGGCUAUGGAUUUGGUUCAGACCGAUUUGGAAGAGACCUCAAUUAUUGUUUUUCAGGAAUGUCUGACCACAGAUAUGGGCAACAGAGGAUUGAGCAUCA` the bound/input enrichment was 0.203 ratio.
The bound/input enrichment of `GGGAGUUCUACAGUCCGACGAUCCGCAUUUUGAUGGUUGGAUUGGAUGCUGCUGGCAAGACAACCAUUCUGUAUAAACUGAAGUCCGGGGAGAUAGUCACCACCAUUCCUACCAUUGGUUUUAAUGUGGAAACAGUAGAAUAUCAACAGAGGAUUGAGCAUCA` is reported as 0.402 ratio.
For `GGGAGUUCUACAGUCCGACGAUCAAAACUGAUUUAGAUAAUUCUAUAGGAAUUAAAAAAAUGAAAACCUCAUGUAAAUUUAAGACCGAUUCAAACAUAAGUCCGAAGAAGGAUAGCAAAGAAUUUACACAAAAAAAUAAGAAACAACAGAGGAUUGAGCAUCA`, the bound/input enrichment was 1.78 ratio.
For `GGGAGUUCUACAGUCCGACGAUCGACCCAUAUUUCCACGAUCGUGUUGCUUCCUUCUAUGAAGGUCAGGUUGCAAUAUGGGAUCUCCGAAAAUUUGAGAAGCCAGUUUUGACAUUGACUGAGCAACCAAAACCCUUAACAAAACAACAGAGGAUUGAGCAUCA`, the bound/input enrichment was 0.141 ratio.
`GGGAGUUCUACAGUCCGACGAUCUAGCAGAGGUAAGAAUAUGUAUUCAUAUAAUCUGCCUACUUUUGAGUUCUCAUAUUAACAUUCCGAUAACAUAUGAAGUAUGGCCCCCUUGGAUCCUUGUUUUUAAGUUACUUUCGAUGUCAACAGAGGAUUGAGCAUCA` gave a bound/input enrichment of 0.298 ratio.
The bound/input enrichment of `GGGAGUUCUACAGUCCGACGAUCCUCAUGUAUCUACUAGCAUAUCCACAAAAACCCAUGGUUAAGACAAAAACCAUUGAAUUGACCGAAUUUGAGAAACUGCCAGCUGGACAGAAUGCAACAGUUGCUGUGAUGAGCUAUAGUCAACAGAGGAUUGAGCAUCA` is reported as 0.196 ratio.

Set 2
Target: Histone acetyltransferase KAT6A, winged helix 1, GST fusion (KAT6A, Homo sapiens, UniProt Q92794, residues 1-85)
Technique: protein binding microarray
Molecule type: double-stranded DNA, one strand shown
Medium: in vitro
Tested at: not given
Setting: 8-mer, flanks averaged, mean of 2 arrays, mostly near background
Baseline: not given
Reading: higher = stronger binding
Target sequence (chain): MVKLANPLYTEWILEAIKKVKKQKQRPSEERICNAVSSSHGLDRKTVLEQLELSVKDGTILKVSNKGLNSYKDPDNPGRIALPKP
For `AAGGATAA`, the E-score was -0.078.
With `ATGCAGAA` the E-score was -0.16.
`GGACTGAC` gave an E-score of 0.0345.
With `GCATAACA` the E-score was -0.192.
`CCTTGAGC` gave an E-score of 0.00256.
For `GCGGAAGC`, the E-score was 0.325.
The E-score of `GCGGAATA` is reported as 0.227.
`AAATCTGA` gave an E-score of -0.11.
For `ACCGTGAA`, the E-score was 0.0982.
`CATCGCTC` gave an E-score of 0.183.
For `CTGCTTAA`, the E-score was -0.0289.
The E-score of `AGACACTA` is reported as -0.14.
For `AATCGTCT`, the E-score was 0.0211.
With `AGCTTGAA` the E-score was -0.177.
With `AAATGTAG` the E-score was -0.0741.
`CTACGGAG` gave an E-score of 0.167.
With `CGTCCGTC` the E-score was 0.251.
The E-score of `GAACGAAC` is reported as 0.0571.
The E-score of `GCGCTCCC` is reported as 0.33.
The E-score of `CGCGAGGA` is reported as 0.213.
`CAGCGAAA` gave an E-score of -0.0108.
`CCGGGACC` has an E-score of 0.354.
The E-score of `CCCTGAGA` is reported as -0.225.
For `ATAAGAAT`, the E-score was -0.0595.
With `GCGACTAC` the E-score was 0.123.

Set 3
Target: Sal-like protein 4, full length isoform B (SALL4, Homo sapiens, UniProt Q9UJQ4-2, residues 1-616)
Technique: universal PBM
Molecule type: double-stranded DNA, one strand shown
Medium: in vitro
Tested at: not given
Setting: 8-mer, flanks averaged, mean of replicates
Reading: higher = stronger binding
Residues (chain): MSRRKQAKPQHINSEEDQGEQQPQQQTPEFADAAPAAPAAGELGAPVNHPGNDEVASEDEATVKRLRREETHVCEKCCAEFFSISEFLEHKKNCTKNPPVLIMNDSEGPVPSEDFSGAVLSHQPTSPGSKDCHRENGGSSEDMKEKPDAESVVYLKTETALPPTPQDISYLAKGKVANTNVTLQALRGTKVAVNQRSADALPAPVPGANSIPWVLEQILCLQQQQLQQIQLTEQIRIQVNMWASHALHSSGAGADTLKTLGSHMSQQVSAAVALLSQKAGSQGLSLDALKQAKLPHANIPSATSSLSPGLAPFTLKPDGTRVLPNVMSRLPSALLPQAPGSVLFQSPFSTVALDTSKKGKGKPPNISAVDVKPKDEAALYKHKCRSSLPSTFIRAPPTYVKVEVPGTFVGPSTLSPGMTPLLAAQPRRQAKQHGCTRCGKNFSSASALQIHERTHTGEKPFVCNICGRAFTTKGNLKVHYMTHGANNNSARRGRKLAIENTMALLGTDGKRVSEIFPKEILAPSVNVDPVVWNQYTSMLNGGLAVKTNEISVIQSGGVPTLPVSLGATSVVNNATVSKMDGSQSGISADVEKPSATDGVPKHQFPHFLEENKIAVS
`CAATCTAA` has an E-score of 0.125.
`CTCTTACC` has an E-score of -0.0446.
The E-score of `GGATGCAC` is reported as -0.197.
`AGCGCCTC` gave an E-score of -0.269.
`ACGGAACT` has an E-score of 0.0301.
The E-score of `AACATCTC` is reported as 0.108.
For `GAGCATAC`, the E-score was 0.0916.
The E-score of `CTAGGAGA` is reported as -0.0584.
`GGAACTAC` gave an E-score of -0.134.
`GAATCCAA` has an E-score of 0.0232.
For `GCCTCTCA`, the E-score was -0.17.
`TAGCTCAA` gave an E-score of -0.00859.
With `ACATCGTC` the E-score was 0.0325.
With `GAAAGCTC` the E-score was -0.295.
`AGGCACAT` has an E-score of 0.0157.
`ATCCCGAG` gave an E-score of -0.152.
For `CGGCTGAG`, the E-score was -0.288.

Set 4
Target: Interferon regulatory factor 3, full length, phosphomimetic (IRF3, Homo sapiens, UniProt Q14653, residues 1-427, S386D/S396D/S398D/S402D/T404D/S405D)
Technique: protein-binding microarray
Molecule type: double-stranded DNA, one strand shown
Medium: in vitro
Tested at: 2540 nM top
Setting: 60-bp whole probe
Together with: salmon DNA 0.4 mg/ml
Baseline: random background probes
Reading: higher = stronger binding
Constant ends, left off below: GCCTAGCAC … GTCTTGATTCGCTTGACGCTGCTG
Residues (chain): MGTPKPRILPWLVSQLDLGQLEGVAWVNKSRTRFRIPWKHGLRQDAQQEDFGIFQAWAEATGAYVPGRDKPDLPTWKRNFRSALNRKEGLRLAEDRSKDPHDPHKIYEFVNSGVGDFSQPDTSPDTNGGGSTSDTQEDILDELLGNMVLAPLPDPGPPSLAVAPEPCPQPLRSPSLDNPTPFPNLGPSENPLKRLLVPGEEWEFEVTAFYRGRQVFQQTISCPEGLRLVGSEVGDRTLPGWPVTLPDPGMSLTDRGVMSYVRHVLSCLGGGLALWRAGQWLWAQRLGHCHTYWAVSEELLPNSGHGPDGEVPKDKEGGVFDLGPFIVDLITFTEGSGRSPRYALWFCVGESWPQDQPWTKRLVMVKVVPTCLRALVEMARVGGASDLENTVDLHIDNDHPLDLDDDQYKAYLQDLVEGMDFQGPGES
`TTAGGACTGGGACTGGGTAAGTGCTAG`: “fitted relative affinity” -0.862 z-score.
`AGGAAGACATCAAAGAGAGCGTGCTAG`: “fitted relative affinity” -0.752 z-score.
`TGGGGTTCACTCCGGTACCCGTGCTAG`: “fitted relative affinity” -0.844 z-score.
`GACGGACTAGGGTTTCGGGACGTGCTA` — result for “fitted relative affinity”: 0.821 z-score.
Under “fitted relative affinity”, `TTACATATCAGTATCGATTAGTGCTAG` is recorded as 2.01 z-score.
`TTAGAACAGAGTTTCGATTAGTGCTAG` — result for “fitted relative affinity”: 2.53 z-score.
`GCCGGTCTCCTTTTCCTGACGTGCTAG` — result for “fitted relative affinity”: 5.46 z-score.
`GACGGTTCCCTTTTCCTGGCGTGCTAG`: “fitted relative affinity” 6.56 z-score.
Under “fitted relative affinity”, `GACGGTTTCGGTTCCGGGAGGTGCTAG` is recorded as 9.85 z-score.
For `TCACATCTGATTTCTCAAACTGTGCTA`, “fitted relative affinity” read 0.988 z-score.
Under “fitted relative affinity”, `GACGGTATCGACTATCGGGATGTGCTA` is recorded as 0.672 z-score.
`TTAGATATCAGTTTTGATTAGTGCTAG` — result for “fitted relative affinity”: 2.22 z-score.
Under “fitted relative affinity”, `TTAGATCTCAGTTTCCATTAGTGCTAG` is recorded as 4.23 z-score.
Under “fitted relative affinity”, `TTAGATTCCAGTTTCGATAAGTGCTAG` is recorded as 4.82 z-score.
`TAAGGTCTCGGTATCGGTTAGTGCTAG`: “fitted relative affinity” 2.65 z-score.
For `CTTTCTTTATGCACTCTTTACGTGCTA`, “fitted relative affinity” read 5.21 z-score.
Under “fitted relative affinity”, `TTACGTATCGACTATCGGTTAGTGCTA` is recorded as 0.869 z-score.
For `GACGGAGTGGACTATCGGGACGTGCTA`, “fitted relative affinity” read -0.626 z-score.
`TCTAATATTCATTTTATTCAGTGCTAG` — result for “fitted relative affinity”: 1.12 z-score.

For quick reference, copied from above (set 4):
`TGGGGTTCACTCCGGTACCCGTGCTAG`: “fitted relative affinity” -0.844 z-score.
Under “fitted relative affinity”, `TTAGATTCCAGTTTCGATAAGTGCTAG` is recorded as 4.82 z-score.
For `CTTTCTTTATGCACTCTTTACGTGCTA`, “fitted relative affinity” read 5.21 z-score.
Under “fitted relative affinity”, `GACGGTTTCGGTTCCGGGAGGTGCTAG` is recorded as 9.85 z-score.
`GCCGGTCTCCTTTTCCTGACGTGCTAG` — result for “fitted relative affinity”: 5.46 z-score.
`TTAGATATCAGTTTTGATTAGTGCTAG` — result for “fitted relative affinity”: 2.22 z-score.
`AGGAAGACATCAAAGAGAGCGTGCTAG`: “fitted relative affinity” -0.752 z-score.
`GACGGACTAGGGTTTCGGGACGTGCTA` — result for “fitted relative affinity”: 0.821 z-score.
`TAAGGTCTCGGTATCGGTTAGTGCTAG`: “fitted relative affinity” 2.65 z-score.
Under “fitted relative affinity”, `GACGGTATCGACTATCGGGATGTGCTA` is recorded as 0.672 z-score.
